Assay results from different studies.
Protocols differ between the studies behind these lines. ± gives the spread as reported.

SMILES	cell line	test	test system	setting	IC50
COc1cc2ncnc(Nc3ccc(F)c(Cl)c3)c2cc1NC(=O)N/N=C/c1ccc(CN(C)C)cc1	NCI-H1975	cell growth or viability, MTT	–	72 h	15.7 µM
O=C(/C=C/c1ccc(O)cc1)C(=CC1=CC=C[CH]1[Fe][CH]1C=CC=C1)C(=O)/C=C/c1ccc(O)cc1 (centres unmarked)	RKO	cell growth or viability, MTT	–	–	7.66 µM
CC(=O)O[C@@]12CO[C@@H]1C[C@H](O)[C@@]1(C)C(=O)[C@H](O)C3=C(C)[C@@H](OC(=O)[C@H](O)[C@@H](NC(=O)OC(C)(C)C)c4ccccc4)C[C@@](O)([C@@H](OC(=O)c4ccccc4)[C@H]21)C3(C)C	PC-3M	cell growth or viability, SRB	–	96 h	0.043 µM
O=C(COc1ccc(-c2nc3ccc(Cl)cc3[nH]2)cc1F)N1CCOCC1	DND41	cell growth or viability, MTS	–	72 h	> 100 µM
CCCNC(=O)Nc1ccc(S(=O)(=O)Oc2cccnc2I)cc1	HT-1080	cell growth or viability, SRB	–	48 h	4 µM
COc1cc(O)c2c(=O)c(O)c(-c3ccc(O)c(O)c3)oc2c1	BV-2	NO release, Griess	–	24 h, added: LPS 10 µg/mL + MLA 10 µM	33.1 µM
CCNC(=O)Nc1ccc(S(=O)(=O)Oc2cnccc2C)cc1	HT-1080	cell growth or viability, SRB	–	48 h	9.4 µM
Fc1ccc2nc(-c3ccc(OCc4cn(CCN5CCOCC5)nn4)cc3)[nH]c2c1	DND41	cell growth or viability, MTS	–	72 h	49.6 µM
O=C(/C=C/c1ccc(O)cc1)CC(=O)/C=C/c1ccc(OC(=O)C2=CC=C[CH]2[Fe][CH]2C=CC=C2)cc1 (centres unmarked)	RKO	cell growth or viability, MTT	–	–	46.6 µM
Nc1cc(C(F)(F)F)c(-c2cc(N3CCOCC3)nc(N3CCOCC3)n2)cn1	glioma cell lines	cell viability, CellTiter-Blue	–	72 h, all lines	1 to 2 µM
O=C(Cc1ccc(F)cc1)Nc1nc2ccccc2n1Cc1ccc(Cl)cc1	MDA-MB-231-HRE-Luc cells	HIF reporter gene, inhibitor	–	24 h, hypoxia 1% O2	1.58 ± 0.75 µM
O=c1[nH]nc(O)c2c(-c3ccc([N+](=O)[O-])cc3)c3n(c12)CCn1cccc1-3	PC-3	cell growth or viability, MTT	–	48 h	60.2 µM
C=C1[C@H](CO)[C@@H](O)C[C@@H]1n1cnc2c(=O)[nH]c(N)nc21	HepG2.A64, resistant mutant	cell growth, CCK-8	–	96 h	0.24 ± 0.04 µM
CCN(CCO)CCCC(C)Nc1ccnc2cc(Cl)ccc12 (centres unmarked)	human PBMC	IFN-alpha release	human	added: SLE patient serum immune complexes	0.8 ± 0.38 µM

For quick reference, copied from above:
SMILES	cell line	test	test system	setting	IC50
CC(=O)O[C@@]12CO[C@@H]1C[C@H](O)[C@@]1(C)C(=O)[C@H](O)C3=C(C)[C@@H](OC(=O)[C@H](O)[C@@H](NC(=O)OC(C)(C)C)c4ccccc4)C[C@@](O)([C@@H](OC(=O)c4ccccc4)[C@H]21)C3(C)C	PC-3M	cell growth or viability, SRB	–	96 h	0.043 µM
CCCNC(=O)Nc1ccc(S(=O)(=O)Oc2cccnc2I)cc1	HT-1080	cell growth or viability, SRB	–	48 h	4 µM
